Results collected from several papers.
Every numbered part comes from another study and shows a few of its results, in no order. Changes are numbered by the printed parent chain.

Set 1 — technique: DHFR PCA, deep sequencing; medium: yeast; with: (+)-ABA 17 µM; baseline: wild-type fitted maximum; reading: higher = stronger binding
Target: ABI1, truncated, D143A, DHFR fusion (Arabidopsis thaliana)
Notes: methotrexate growth selection, single substitutions
Starting sequence: PYL1, truncated, DHFR fusion (Arabidopsis thaliana); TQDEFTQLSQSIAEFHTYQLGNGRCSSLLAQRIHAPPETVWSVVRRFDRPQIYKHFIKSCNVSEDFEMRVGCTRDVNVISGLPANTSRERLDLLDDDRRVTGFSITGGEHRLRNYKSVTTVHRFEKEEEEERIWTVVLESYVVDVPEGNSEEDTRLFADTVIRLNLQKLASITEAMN
| Substitution | relative binding score [%] |
| --- | --- |
| E125L | 82.9 |
| I52V | 93 |
| S63Q | 89.1 |
| V118T | 98.8 |
| E147D | 85.4 |
| V70A | 68 |
| Q7T | 85.8 |
| H16S | 9.46 |
| D48S | 23 |
| E129Y | 78.4 |
| E128T | 92.7 |
| S140N | 2.47 |
| I133M | 89.3 |
| R155F | -1.39 |
| W41M | -1.41 |

Set 2 — technique: universal PBM; molecule type: double-stranded DNA, one strand shown; medium: in vitro; concentration: not given; reading: higher = stronger binding
Target: Sal-like protein 4, full length isoform B (SALL4, Homo sapiens, UniProt Q9UJQ4-2, residues 1-616)
Notes: 8-mer, flanks averaged, mean of replicates
Residues (chain): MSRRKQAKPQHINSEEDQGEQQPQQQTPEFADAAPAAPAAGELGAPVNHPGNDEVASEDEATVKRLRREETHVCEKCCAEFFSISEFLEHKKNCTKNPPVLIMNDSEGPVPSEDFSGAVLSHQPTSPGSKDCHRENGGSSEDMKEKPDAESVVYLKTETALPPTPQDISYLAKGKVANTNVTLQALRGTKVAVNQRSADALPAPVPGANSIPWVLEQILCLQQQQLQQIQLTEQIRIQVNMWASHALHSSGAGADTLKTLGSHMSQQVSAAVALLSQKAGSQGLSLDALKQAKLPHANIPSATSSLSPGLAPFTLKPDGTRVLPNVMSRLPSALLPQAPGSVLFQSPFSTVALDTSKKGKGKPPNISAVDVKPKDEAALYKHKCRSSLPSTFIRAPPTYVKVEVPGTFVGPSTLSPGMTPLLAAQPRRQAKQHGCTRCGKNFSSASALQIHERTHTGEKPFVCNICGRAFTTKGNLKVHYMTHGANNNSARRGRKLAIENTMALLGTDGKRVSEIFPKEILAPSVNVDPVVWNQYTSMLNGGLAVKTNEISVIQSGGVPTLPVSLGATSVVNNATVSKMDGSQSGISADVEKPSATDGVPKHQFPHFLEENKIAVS
| Strand | E-score |
| --- | --- |
| ACAGGAAG | -0.0388 |
| CAGGTATG | -0.0107 |
| GGTGGTAC | -0.185 |
| CATACAAA | 0.252 |
| AGGGCTGC | -0.317 |
| GTTAACCA | -0.00822 |
| ACAATTCC | 0.0352 |
| AAAGCCTA | 0.0471 |
| GCCTGTAC | -0.0566 |
| CCAAAAGG | -0.0703 |
| CAATTGAG | -0.163 |
| AGATCCGG | -0.187 |
| GGACTACA | 0.0505 |
| CCCGCATC | -0.21 |
| ATATCCGA | 0.203 |
| AACGTTGC | 0.0633 |
| CGTAAACA | 0.119 |
| CGACCCGA | -0.212 |
| GCAGCCCC | -0.289 |
| TAGTACAA | 0.189 |
| CTACTCAG | -0.195 |
| CTTCTTGA | 0.104 |
| ATGGCTCC | -0.13 |
| GCGGACGA | -0.302 |
| CCTCTAGC | -0.106 |

Set 3 — target: CCNF, cyclin fold, Cln2 fusion (human); technique: yeast growth competition, sequencing; medium: yeast; notes: strong parent motif; baseline: not given; reading: higher = stronger binding
Starting sequence: CDKN1A docking peptide (human); SKACRRLFGPVDS
| Substitution | normalised enrichment score |
| --- | --- |
| SKACRRLFDPVDS [G9D] | 7.44 |
| SKATRRLFGPVDS [C4T] | 3.3 |
| SVACRRLFGPVDS [K2V] | 7.07 |
| SEACRRLFGPVDS [K2E] | 6.37 |
| SCACRRLFGPVDS [K2C] | 6.4 |
| SKACRNLFGPVDS [R6N] | 7.08 |
| SKACRRLKGPVDS [F8K] | 0.319 |
| SKAFRRLFGPVDS [C4F] | 2 |
| SKACRRLIGPVDS [F8I] | 1.03 |
| SKACRRLFYPVDS [G9Y] | 8.56 |
| SKACRRLFWPVDS [G9W] | 8.35 |
| SKACRRHFGPVDS [L7H] | 0.336 |
| SKACRRLPGPVDS [F8P] | 0.314 |
| SKACRHLFGPVDS [R6H] | 2.3 |
| SKACRYLFGPVDS [R6Y] | 2.86 |
| AKACRRLFGPVDS [S1A] | 7.82 |
| SKACDRLFGPVDS [R5D] | -0.419 |
| SKACRRLFGPVLS [D12L] | 7 |
| SKACRRLFGLVDS [P10L] | 6.18 |
| SKACRRLFSPVDS [G9S] | 7.38 |
| SKACRRLFNPVDS [G9N] | 7.08 |
| SKACRRCFGPVDS [L7C] | 0.457 |
| SKACWRLFGPVDS [R5W] | 0.649 |

Set 4 — technique: protein binding microarray; molecule type: double-stranded DNA, one strand shown; medium: in vitro; concentration: not given; baseline: not given; reading: higher = stronger binding
Target: Histone acetyltransferase KAT6A, winged helix 1, GST fusion (KAT6A, Homo sapiens, UniProt Q92794, residues 1-85)
Notes: 8-mer, flanks averaged, mean of 2 arrays, mostly near background
Construct (chain): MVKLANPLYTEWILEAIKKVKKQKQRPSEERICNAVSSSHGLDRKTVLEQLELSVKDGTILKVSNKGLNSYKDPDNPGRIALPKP
| Strand | E-score |
| --- | --- |
| GCTCTACA | -0.0914 |
| CGCGCCGC | 0.456 |
| CCCCGGAC | 0.1 |
| AGAGCGAA | 0.0213 |
| ATCCTGTG | -0.202 |
| ATTCCTTG | -0.03 |
| GCCAGCTA | -0.119 |
| AGCGTCAC | 0.131 |
| AGCGTTAG | -0.086 |
| AACGCGGA | 0.266 |
| ACGCAGCG | 0.269 |
| GTGGGCCA | -0.138 |
| CGCCTAAC | 0.109 |
| GCGCATAA | 0.192 |
| CACGGGTA | 0.287 |
| ACGCGGTG | 0.268 |
| AATGAGCA | -0.216 |
| AATCTTTA | -0.128 |
| AGCCATGC | -0.0705 |
